Published values from different studies.
Parts stem from different laboratories: compare values within a part only. Changes are numbered by the printed parent chain.

Sample 1 — method: universal PBM; molecule type: double-stranded DNA, one strand shown; sample: in vitro; tested at: 600 nM; reading: higher = stronger binding
Target: Sal-like protein 4, full length isoform A (SALL4, Homo sapiens, UniProt Q9UJQ4, residues 1-1053)
Sequence of UniProt Q9UJQ4 (whole entry, looked up): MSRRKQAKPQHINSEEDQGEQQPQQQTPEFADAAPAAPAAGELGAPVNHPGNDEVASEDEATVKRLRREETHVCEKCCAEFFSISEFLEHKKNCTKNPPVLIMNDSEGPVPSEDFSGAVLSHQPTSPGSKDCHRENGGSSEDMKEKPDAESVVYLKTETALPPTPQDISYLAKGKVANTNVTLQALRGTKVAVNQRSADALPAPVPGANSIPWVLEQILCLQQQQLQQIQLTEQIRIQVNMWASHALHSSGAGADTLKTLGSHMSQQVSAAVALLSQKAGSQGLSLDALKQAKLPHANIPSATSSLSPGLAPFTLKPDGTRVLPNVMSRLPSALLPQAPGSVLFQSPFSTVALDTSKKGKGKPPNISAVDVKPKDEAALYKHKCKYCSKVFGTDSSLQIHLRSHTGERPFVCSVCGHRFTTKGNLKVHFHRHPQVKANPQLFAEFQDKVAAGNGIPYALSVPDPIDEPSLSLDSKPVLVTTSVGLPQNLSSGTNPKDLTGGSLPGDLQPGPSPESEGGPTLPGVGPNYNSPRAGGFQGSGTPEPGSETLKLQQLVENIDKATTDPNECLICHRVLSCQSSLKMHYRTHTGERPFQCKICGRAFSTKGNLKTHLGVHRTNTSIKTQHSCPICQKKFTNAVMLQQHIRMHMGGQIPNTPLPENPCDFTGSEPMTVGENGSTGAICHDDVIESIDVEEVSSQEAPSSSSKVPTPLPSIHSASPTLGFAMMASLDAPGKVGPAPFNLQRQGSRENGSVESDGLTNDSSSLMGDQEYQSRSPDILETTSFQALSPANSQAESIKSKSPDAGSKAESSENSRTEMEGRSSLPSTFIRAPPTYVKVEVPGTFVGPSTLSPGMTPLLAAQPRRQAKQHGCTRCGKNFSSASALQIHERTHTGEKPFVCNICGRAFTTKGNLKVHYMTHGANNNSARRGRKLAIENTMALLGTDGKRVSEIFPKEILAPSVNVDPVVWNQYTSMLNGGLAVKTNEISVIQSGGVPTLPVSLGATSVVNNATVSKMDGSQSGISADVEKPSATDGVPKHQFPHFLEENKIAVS
Notes: 8-mer, flanks averaged, mean of replicates
Strand | E-score
TTCCCGAA | 0.0813
ACGCTCAC | -0.133
CGCACACC | -0.173
ATTACCAA | 0.207
CACTCTCG | -0.0972
AGCGTAGG | -0.218
TGACAGAA | 0.172
GTATTCGA | -0.0464
CAAACTGA | -0.00307
CCCCACCG | -0.269
ACGGTTGC | -0.203
AGCTAGGA | -0.106
CTGGCATA | -0.0109
ATCTTAAC | 0.189
CGCTTTAG | -0.0919
TCGTACGA | 0.133
AAACGTCT | 0.106
AGTTGCAT | 0.151
AGAACTAC | 0.05
GTCAATTA | 0.192
CCGACGAG | -0.22
CGCACCTA | -0.104
GCACCGCC | -0.418
AGGTCAAC | -0.0803
AACGGGCA | -0.0443

Sample 2 — method: RNA Bind-n-Seq; molecule type: RNA; sample: in vitro; tested at: 200 nM; notes: whole 134-nt RNA, ends assumed; together with: 150 mM KCl; baseline: input library; reading: higher = stronger binding
Target: Ras GTPase-activating protein-binding protein 1, full length (G3BP1, Homo sapiens, UniProt Q13283)
Sequence of UniProt Q13283 (whole entry, looked up): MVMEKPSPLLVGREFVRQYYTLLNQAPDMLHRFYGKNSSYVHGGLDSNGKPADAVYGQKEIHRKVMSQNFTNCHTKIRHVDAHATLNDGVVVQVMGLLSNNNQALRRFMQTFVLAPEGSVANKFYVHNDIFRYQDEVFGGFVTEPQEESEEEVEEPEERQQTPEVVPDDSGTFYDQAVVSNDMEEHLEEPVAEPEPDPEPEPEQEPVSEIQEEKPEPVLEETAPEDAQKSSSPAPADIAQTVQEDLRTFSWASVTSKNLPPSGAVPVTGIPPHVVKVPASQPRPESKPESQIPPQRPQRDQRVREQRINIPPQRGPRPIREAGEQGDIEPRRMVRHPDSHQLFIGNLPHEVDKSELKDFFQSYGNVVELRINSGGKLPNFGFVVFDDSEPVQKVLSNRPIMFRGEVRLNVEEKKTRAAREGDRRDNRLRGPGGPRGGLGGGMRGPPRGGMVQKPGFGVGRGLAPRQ
Constant ends, left off below: GGGAGUUCUACAGUCCGACGAUC … UGGAAUUCUCGGGUGUCAAGG
Strand | log2 enrichment
AAGUCCUGUGCUACACAUCGUAUGUACCGAAUCGGUUUUUGGUUUGGUUUUUUUGGAAAGUAUUAUGUUACGCCGUUCGGAUCUGCACUU | -1.1
UCCUGUGCUACACAUCGUAUGUACCGAAUCGGCCCCCCGGGGCCCCCCGGGGCCCCCCGGAAAGUAUUAUGUUACGCCGUUCGGAUCUGC | -0.635
GUCCUGUGCUACACAUCGUAUGUACCGAAUCGGUUUUUGGGGUUUUUGGUUUUUGGGGAAAGUAUUAUGUUACGCCGUUCGGAUCUGCAC | -0.81
CAAGUCCUGUGCUACACAUCGUAUGUACCGAAUCGGAAAAAAAGGUUUUUGGUGGAAAGUAUUAUGUUACGCCGUUCGGAUCUGCACUUC | -1.4
UCCUGUGCUACACAUCGUAUGUACCGAAUCGGGUUUUUUUGGGUUUUUUUGGGAAAGGGAAAGUAUUAUGUUACGCCGUUCGGAUCUGCA | -0.289
CCUGUGCUACACAUCGUAUGUACCGAAUCGGGGAAAAAGGGGAAAAAAAGGGGUUUGGGGAAAGUAUUAUGUUACGCCGUUCGGAUCUGC | 0.354

Sample 3 — target: UBE2V1 UBC core domain (UniProt Q13404); method: yeast two-hybrid; sample: yeast; notes: mostly zero background; baseline: not given; reading: higher = stronger interaction
B1: TRIM22 RING domain (UniProt Q8IYM9); chain VKVDIEKEVTCPICLELLTEPLSLDCGHSFCQACITAKIKESVIISRGESSCPVCQTRFQPGNLRP
B2: TRIM37 RING domain (UniProt O94972); chain SVESIAEVFRCFICMEKLRDARLCPHCSKLCCFSCIRRWLTEQRAQCPHCRAPLQLRELVN
B3: MYCBP2 RING domain (UniProt O75592); chain TSLKQDADDMCMICFTEALSAAPAIQLDCSHIFHLQCCRRVLENRWLGPRITFGFISCPICKNKINHIVLKD
Residues (chain): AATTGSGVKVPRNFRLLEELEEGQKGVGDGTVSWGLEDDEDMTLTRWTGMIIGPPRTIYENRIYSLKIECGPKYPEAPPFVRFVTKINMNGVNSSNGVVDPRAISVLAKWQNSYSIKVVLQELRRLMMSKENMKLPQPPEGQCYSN
Molecule | lacZ reporter activity
LDAASGHPLVCPLCHGQYERPCLLDCFHDFCTGCLRGRATDGRLSCPLCQHQTLVKGPSG (Rnf207 RING domain (UniProt Q3V3A7)) | 0
B1 (TRIM22 RING domain) | 0
B2 (TRIM37 RING domain) | 0
LGTKLEAKYLCSACRNVLRRPFQAQCGHRYCSFCLASILSSGPQNCAACVHEGIYEEGIS (TRAF2 RING domain (UniProt Q12933)) | 0
B3 (MYCBP2 RING domain) | 0
AEADPLGRFTCPVCLEVYEKPVQVPCGHVFCSACLQECLKPKKPVCGVCRSALAPGVRAV (RNF114 RING domain (UniProt Q9Y508)) | 0

Sample 4 — target: CCNB1, cyclin fold, Cln2 fusion (human); method: yeast growth competition, sequencing; sample: yeast; notes: weak parent motif; baseline: not given; reading: higher = stronger binding
Starting sequence: RB1 docking peptide (human); PKPLKKLRFDIEG
Substitution | normalised enrichment score
PKPLVKLRFDIEG [K5V] | 0.251
PKPLKFLRFDIEG [K6F] | 0.585
PKPCKKLRFDIEG [L4C] | 0.775
PKPLKKLRFDIGG [E12G] | 1.21
PKPLKKLRMDIEG [F9M] | 1.19
PKPLKKLRCDIEG [F9C] | -0.139
AKPLKKLRFDIEG [P1A] | 0.769
PKPLKKLRFDGEG [I11G] | 0.987
PKPLKKLRFDIHG [E12H] | 0.336
PKPLKKLRFDIRG [E12R] | -0.0294
PKPLRKLRLDIEG [K5R F9L] | -0.0405
PKPLKKLRFDWEG [I11W] | 0.578
PKPLKKLRFDIEC [G13C] | 1.39

Sample 5 — method: RNA Bind-n-Seq; molecule type: RNA; sample: in vitro; tested at: not given; baseline: input RNA pool; reading: higher = stronger binding
Target: RING finger protein unkempt homolog, zinc fingers 1-6, GST-SBP tag (UNK, Homo sapiens, UniProt Q9C0B0, residues 30-357)
Notes: RNA with constant flanks, human and mouse sites, ends assumed
Constant ends, left off below: GGGAGUUCUACAGUCCGACGAUC … CAACAGAGGAUUGAGCAUCA
Residues (chain): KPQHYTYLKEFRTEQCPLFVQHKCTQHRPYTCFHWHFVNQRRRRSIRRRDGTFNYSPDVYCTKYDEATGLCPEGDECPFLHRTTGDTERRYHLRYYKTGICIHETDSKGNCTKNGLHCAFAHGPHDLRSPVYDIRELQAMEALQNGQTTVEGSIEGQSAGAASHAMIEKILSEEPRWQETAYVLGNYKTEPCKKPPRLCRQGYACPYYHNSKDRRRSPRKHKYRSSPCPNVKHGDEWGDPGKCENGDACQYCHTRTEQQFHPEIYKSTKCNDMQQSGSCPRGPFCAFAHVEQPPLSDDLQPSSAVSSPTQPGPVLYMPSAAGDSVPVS
Strand | bound/input enrichment
GAGAAGCUCAAGACCAUCAGCCUGGUGAUCCGCGGCACGCAGGGGGCCGAGGAGGUGCUCAGGGCCCACGAGGAGCAGCUCAAGGAGGCCCAGGCCGUGCCGGCCACCCUCCCGGAGCUC | 0.146 ratio
GCUGUGCUGGGAAACCAGAUUUUUAUCAUGGGUGGAGAUACAGAGUUCUCUGCCUGCUCCGCUUACAAAUUCAAUAGUGAGACUUACCAGUGGACCAAGGUGGGAGAUGUGACAGCCAAG | 0.414 ratio
GAAAUUAAAGAGCCUGAAAAUAUUAAUGCAGCUCUUCAAGAAACAGAAGCUCCUUAUAUAUCUAUUGCAUGUGAUUUAAUUAAAGAAACAAAGCUUUCUGCUGAACCAGCUCCGGAUUUC | 0.467 ratio
CUUUUGAUUUCUUUUUCUUUUUUUCUCUUCUUGUUUUUGUUUUUCUUUUUUGUUUGUUUUUUUAGCAUGCAAAUAUGUUGGUACGUUAUGUCCUGGUUUAAAAGGAUUAAAAAUUUAAAA | 1.13 ratio
CACCCCGGCAAAGGACAGGCGGGCCCUGGUCCUCAAGCAGCCCAUAGGCGUGGCUGCAGUCAUCACCCCGUGGAAUUUCCCCAGUGCCAUGAUCACCCGGAAGGUGGGGGCCGCCCUGGC | 0.0798 ratio
GUUCUUGGAUUUGAGGGGUGCUGAAGUGACACUCCUCUAUGACUUCUUUCUUCCUCCUUUUUAAUCUUACUCUCAUCCCUUUCUCUCUGUCCCAGCCUUCCUGCACCUCUCUGUCUUGUA | 0.813 ratio
UUAAAGAUCAGCAAUUUAAAGAAAAUUUUAAAAGGCAUCUUGGAUUACAAUCAUGAGAUUUUAGGACAGCAGAUUAAUGAUUUCACCCUUCCUGACGUGAACCUCAUUGGGGAGCAUUCG | 0.251 ratio
CGGCCGAGUUCAGUGUCCCUUGUUCAGGGCUCUUGAUAAUGUUUGACCCAGUGGCAACACUAGUAGACGACCUGAUUUUAAAGCUGACCUCAGCCUCUGCAUCUUCUCUCGAGUAGUCCC | 0.135 ratio

Some of these lines once more (sample 1):
Strand | E-score
AAACGTCT | 0.106
AGTTGCAT | 0.151
AGAACTAC | 0.05
GTCAATTA | 0.192
CCGACGAG | -0.22
